{"data": "Assay results from different studies", "note": "Compare with care: the assays were run in different laboratories. Numbers after ± are the reported error."}
{"Compound": "O=C(CC(=O)c1ccccc1)c1ccccc1", "system": "Sprague-Dawley rat, male, plasma", "conditions": "oral, 50 mg/kg, regular emulsion", "endpoint": "absolute bioavailability", "result": "11.5 ± 1.94%"}
{"Compound": "C[C@H](Cn1cnc2c(N)ncnc21)OCP(=O)(O)O", "assay": "two-compartment model", "system": "Macaca nemestrina, male", "conditions": "subcutaneous, 10.6 mg/kg", "endpoint": "elimination half-life (t1/2,beta)", "result": "9.93 h"}
{"Compound": "CC(=O)N[C@H](CCCCNC(=O)C(C)F)C(=O)N[C@@H](CS)C(=O)N[C@@H](CS)C(=O)N[C@@H](CCC(=O)O)C(=O)N[C@@H](Cc1c[nH]cn1)C(=O)N[C@H](Cc1ccccc1)C(=O)N[C@@H](CCCNC(=N)N)C(=O)N[C@@H](Cc1c[nH]c2ccccc12)C(=O)N[C@@H](CS)C(=O)N[C@@H](CCCNC(=N)N)C(=O)N1CCC[C@H]1C(=O)N[C@H](C(N)=O)C(C)C (some centres unmarked) [fluorine-18 labelled]", "system": "Foxn1 nude mouse, A375M xenograft", "conditions": "intravenous, 2 h", "endpoint": "tumour to muscle ratio", "result": "4.49 ± 0.17"}
{"Compound": "C[C@H]1CNCCc2ccc(Cl)cc21", "system": "male Sprague-Dawley rat, plasma", "conditions": "subcutaneous, pimavanserin 0.5 + lorcaserin 0.5 mg/kg, pimavanserin 15 min earlier", "endpoint": "AUC extrapolated", "result": "7.14 ± 0.75%"}
{"Compound": "CC1(C)S[C@@H]2[C@H](NC(=O)[C@@H](C(=O)O)c3ccsc3)C(=O)N2[C@H]1C(=O)O", "system": "rat plasma", "conditions": "8000 ng/mL, three freeze-thaw cycles", "scale": "relative to: nominal concentration", "endpoint": "relative error", "result": "-0.5%"}
{"Compound": "CCCCCOc1ccc(-c2cc(-c3ccc(C(=O)N[C@H]4C[C@@H](O)[C@@H](O)NC(=O)[C@@H]5[C@@H](O)[C@@H](C)CN5C(=O)[C@H]([C@H](O)CC(N)=O)NC(=O)[C@H]([C@H](O)[C@@H](O)c5ccc(O)c(OS(=O)(=O)O)c5)NC(=O)[C@@H]5C[C@@H](O)CN5C(=O)[C@H]([C@@H](C)O)NC4=O)cc3)no2)cc1", "system": "preterm neonates ≥1000 g, plasma", "conditions": "intravenous, 15 mg/kg/day, repeated dosing, mean", "endpoint": "Vdss", "result": "1.8 L"}
{"Compound": "[123I]c1cncc(OC[C@@H]2CCN2)c1", "assay": "SPECT", "system": "human, parietal lobe", "conditions": "intravenous bolus, 7.35 mCi", "scale": "relative to: tissue over plasma", "endpoint": "tissue/plasma ratio", "result": 28.2}
{"Compound": "CSCC[C@@H]1NC(=O)[C@H](CC(=O)O)NC(=O)CNC(=O)[C@H](CCCNC(=N)N)NC(=O)[C@H](C)NC(=O)[C@H](CCC(=O)O)NC(=O)[C@H](CCCNC(=N)N)NC(=O)[C@@H]2CSSC[C@@H]3NC(=O)[C@H](CO)NC(=O)[C@H]([C@@H](C)O)NC(=O)[C@@H]4CCCN4C(=O)[C@H](C)NC(=O)[C@H](Cc4c[nH]c5ccccc45)NC(=O)[C@H](CC(=O)O)NC(=O)CNC(=O)[C@H](CCCNC(=N)N)NC(=O)CNC(=O)[C@H](CCC(N)=O)NC(=O)[C@@H]4CCCN4C(=O)[C@@H](NC(=O)CNC(=O)C(C)F)CSSC[C@H](NC(=O)CNC(=O)[C@H](C)NC(=O)[C@H](CC(C)C)NC(=O)[C@H](CSSC[C@@H](C(=O)NCC(N)=O)NC(=O)[C@H]([C@@H](C)O)NC(=O)[C@H](CCCNC(=N)N)NC(=O)[C@@H]4CCCN4C1=O)NC(=O)[C@H](CC(=O)O)NC(=O)[C@H](CO)NC(=O)[C@H](CC(=O)O)NC(=O)[C@H](CCC(N)=O)NC(=O)[C@H](CO)NC3=O)C(=O)N[C@@H](C(C)C)C(=O)N2 (some centres unmarked) [fluorine-18 labelled]", "system": "nude mice U-87 MG xenograft, heart", "conditions": "intravenous, 0.5 h", "endpoint": "tissue uptake", "result": "0.48 ± 0.08 %ID/g"}
{"Compound": "CC(C)C[C@H](NC(=O)[C@H](CC(=O)O)NC(=O)CNC(=O)[C@H](CCCNC(=N)N)NC(=O)[C@H](CC(C)C)NC(=O)[C@H](CC(N)=O)NC(=O)[C@@H]1CCCN1C(=O)[C@@H](NC(=O)[C@H](C)NC(=O)[C@H](CC(N)=O)NC(=O)CCOCCOCCOCCOCCOCCOCCOCCOCCOCCOCCOCCOCCOCCOCCOCCOCCOCCOCCOCCOCCOCCOCCOCCOCCOCCOCCOCCOCCNC(=O)CN1CCN(CC(=O)O)CCN(CC(=O)O)CC1)C(C)C)C(=O)N[C@@H](CCC(N)=O)C(=O)N[C@H](C(=O)N[C@@H](CC(C)C)C(=O)N[C@@H](C)C(=O)N[C@@H](CCC(N)=O)C(=O)N[C@@H](CCCNC(=N)N)C(=O)N[C@H](C(=O)N[C@@H](C)C(=O)N[C@@H](CCCNC(=N)N)C(=O)N[C@H](C(=O)NCCOCCOCCOCCOCCOCCOCCOCCOCCOCCOCCOCCOCCOCCOCCOCCOCCOCCOCCOCCOCCOCCOCCOCCOCCOCCOCCOCCOCCC(N)=O)[C@@H](C)O)C(C)C)C(C)C [fluorine-18 labelled]", "assay": "biodistribution, radioactivity", "system": "female athymic nude mice, DX3puroβ6/DX3puro xenografts, kidney", "conditions": "intravenous, 0.175 nmol, 1 h", "endpoint": "tissue uptake", "result": "39 ± 10 %ID/g"}
{"Compound": "CC[C@H](C)[C@H](NC(=O)[C@@H](N)CCCNC(=N)N)C(=O)N[C@H](C(=O)N1CCC[C@H]1C(=O)N[C@@H](C)C(N)=O)C(C)C", "system": "human, plasma", "conditions": "intravenous, 3 mg/kg, single dose, healthy volunteers", "endpoint": "AUC(0-t)", "result": "1040 ng·h/mL"}
{"Compound": "CC[C@H](C)[C@H](NC(=O)[C@H](CC(C)C)NC(=O)[C@H](Cc1c[nH]c2ccccc12)NC(=O)[C@H](CCC(N)=O)NC(=O)[C@@H](NC(=O)[C@H](Cc1ccccc1)NC(=O)[C@H](C)NC(=O)[C@H](CCCCNC(=O)COCCOCCNC(=O)COCCOCCNC(=O)CC[C@H](NC(=O)CCCCCCCCCCCCCCCCCCC(=O)O)C(=O)O)NC(=O)[C@H](CCC(N)=O)NC(=O)[C@H](C)NC(=O)[C@@H](NC(=O)[C@H](CCCCN)NC(=O)[C@H](CC(=O)O)NC(=O)[C@H](CC(C)C)NC(=O)C(C)(C)NC(=O)[C@@H](NC(=O)[C@H](CO)NC(=O)[C@H](Cc1ccc(O)cc1)NC(=O)[C@H](CC(=O)O)NC(=O)[C@H](CO)NC(=O)[C@@H](NC(=O)[C@H](Cc1ccccc1)NC(=O)[C@@H](NC(=O)CNC(=O)[C@H](CCC(=O)O)NC(=O)C(C)(C)NC(=O)[C@@H](N)Cc1ccc(O)cc1)[C@@H](C)O)[C@@H](C)O)[C@@H](C)CC)[C@@H](C)CC)C(C)C)C(=O)N[C@@H](C)C(=O)NCC(=O)NCC(=O)N1CCC[C@H]1C(=O)N[C@@H](CO)C(=O)N[C@@H](CO)C(=O)NCC(=O)N[C@@H](C)C(=O)N1CCC[C@H]1C(=O)N1CCC[C@H]1C(=O)N1CCC[C@H]1C(=O)N[C@@H](CO)C(N)=O", "system": "human, severe renal impairment, plasma", "conditions": "subcutaneous, 5 mg single dose, geometric mean", "endpoint": "CL/F", "result": "1 mL/min"}
{"Compound": "CC[C@H](C)[C@H](NC(=O)[C@H](CO)NC(=O)[C@H](C)NC(=O)[C@@H](NC(=O)CNC(=O)[C@H](CO)NC(=O)[C@@H](NC(=O)[C@@H](NC(=O)[C@H](Cc1c[nH]cn1)NC(=O)[C@@H]1CCCN1C(=O)[C@@H](NC(=O)[C@H](CC(C)C)NC(=O)[C@H](CO)NC(=O)[C@H](CC(C)C)NC(=O)[C@@H](N)Cc1ccccc1)[C@@H](C)CC)[C@@H](C)CC)C(C)C)C(C)C)C(=O)N[C@@H](C)C(=O)N[C@@H](CCCCN)C(=O)N[C@@H](Cc1c[nH]cn1)C(=O)N[C@@H](Cc1ccccc1)C(N)=O", "assay": "UPLC-MS/MS", "system": "rat plasma", "conditions": "0.05 µg/mL, 10 days, -20 °C, long-term stability", "endpoint": "concentration found", "result": "48 ng/mL"}
{"Compound": "O[C@H]1CCCN[C@@H]1CCCn1cnc2c(Cl)c(Cl)ccc21", "system": "human, plasma", "conditions": "oral, 600 mg, single dose, healthy volunteers", "endpoint": "half-life", "result": "9.9 h"}
{"Compound": "c1ccc2c(-c3cnn4cc(-c5ccc(N6CCNCC6)cc5)cnc34)ccnc2c1", "system": "zebrafish embryos", "conditions": "dose not given", "endpoint": "EC100 toxicity", "result": "20 µM"}
{"Compound": "N#C[C@]1(CO)O[C@@H](n2cc(F)c3c(N)ncnc32)C[C@@H]1O", "system": "HBV-infected human-liver-chimeric mice, serum", "conditions": "oral, 1 mg/kg/day, 14 days", "endpoint": "serum human albumin", "result": "no effect"}
{"Compound": "O=C1CC(c2ccc(O)cc2)Oc2cc(O)cc(O)c21 (centres unmarked)", "system": "Wistar rat", "conditions": "oral gavage, 28 days, dose range-finding toxicity study", "endpoint": "no-effect dose, highest tested", "result": "≤ 4000 mg/kg/day"}
{"Compound": "Oc1ccc2ccc3cccc4ccc1c2c34", "assay": "HPLC-fluorescence", "system": "Wistar rat, male, liver", "conditions": "oral, 4 mg/kg PY, 24 h", "endpoint": "tissue concentration", "result": "1300 ± 200 ng/g"}
{"Compound": "O=C(N[C@@H](Cn1ccnc1)c1ccc(-c2ccc(F)cc2)cc1F)c1ccc(-c2nnc(-c3ccccc3)o2)cc1", "system": "mouse, plasma", "conditions": "oral, 25 mg/kg, DGAT formulation", "endpoint": "AUC", "result": "159 ng·h/mL"}
{"Compound": "Oc1cc(Cl)c(-c2cc(Cl)ccc2Cl)cc1Cl", "system": "Sprague-Dawley rat, male, serum", "conditions": "subcutaneous implant, 5% in implant, 28 d, medium dose group", "endpoint": "serum concentration", "result": "81 ± 21 ng/g"}
{"Compound": "CCCCCCCCCC(=O)N[C@@H](Cc1c[nH]c2ccccc12)C(=O)N[C@H](CC(N)=O)C(=O)N[C@@H](CC(=O)O)C(=O)N[C@@H]1C(=O)NCC(=O)N[C@@H](CCCN)C(=O)N[C@@H](CC(=O)O)C(=O)N[C@H](C)C(=O)N[C@@H](CC(=O)O)C(=O)NCC(=O)N[C@H](CO)C(=O)N[C@@H]([C@H](C)CC(=O)O)C(=O)N[C@@H](CC(=O)c2ccccc2N)C(=O)O[C@@H]1C", "system": "male Wistar rat, plasma", "conditions": "subcutaneous, 50 mg/kg, single dose", "endpoint": "Vss", "result": "0.14 ± 0.02 L/kg"}
{"Compound": "CC(C)C[C@@H](NC(=O)[C@@H](Cc1ccccc1)NC(=O)[C@H](N)Cc1ccccc1)C(=O)N[C@H](CCCCN)C(=O)N1CCC(N)(C(=O)O)CC1", "assay": "item: total radioactivity", "system": "human subjects on haemodialysis", "conditions": "intravenous, time not given", "endpoint": "dose recovered in feces", "result": "58.8%"}
{"Compound": "CC(C)Nc1nc(Cl)nc(NC(C)C)n1", "assay": "LC-MS/MS", "system": "herbicide solution", "conditions": "2 h, 4 °C, together with: 254 nm UV exposure", "endpoint": "remaining amount", "result": "40.4 ± 6.85%"}
{"Compound": "CN[C@@](C)(C[18F])C(=O)O", "system": "SCID mouse MDA-MB-468 xenograft, liver", "conditions": "120 min, post injection", "endpoint": "tissue uptake", "result": "5 ± 0.9 %ID/g"}
{"Compound": "CCN(CC)CCCC(C)Nc1ccnc2cc(Cl)ccc12 (centres unmarked)", "system": "male athymic BALB/c nude mice, xenograft, serum", "conditions": "intraperitoneal, 60 mg/kg every other day, 2 weeks, together with: sulforaphane 5 mg/kg", "endpoint": "creatinine", "result": "21.7 ± 3.97 µmol/L"}
{"Compound": "Oc1cc(Cl)c(Cl)c(-c2cc(Cl)ccc2Cl)c1Cl", "assay": "enantioselective GC, item: hydroxylated metabolite", "system": "phenobarbital-treated rat, rat liver microsomes", "conditions": "50 µM, 30 min", "endpoint": "enantiomeric fraction", "result": 0.32}
{"Compound": "CCCCCCCCCC(=O)N[C@@H](Cc1ccccc1)C(=O)N[C@H](C(=O)NCC(=O)N[C@H](C(=O)N[C@@H](CC(C)C)C(=O)N[C@H](C(=O)N1CCC[C@H]1C(=O)N[C@@H](CC(C)C)C(=O)N[C@@H](C)C(=O)N[C@@H](CC(C)C)C(=O)NCC(=O)N[C@@H](C)C(=O)N[C@@H](CC(C)C)C(=O)N[C@H](C(=O)N[C@@H](CCCCN)C(=O)N[C@@H](CC(C)C)C(=O)N[C@@H](Cc1ccccc1)C(=O)N[C@@H](CCCCN)C(N)=O)[C@@H](C)O)[C@@H](C)CC)[C@@H](C)O)[C@@H](C)CC", "assay": "reversed-phase HPLC", "conditions": "hydrophobicity measure", "endpoint": "retention time", "result": "12.3 min"}
